Results from different studies.
Each line is one published result; not all experiments were run side by side. Several values in a cell are separate wells, animals, samples, runs or records. ± marks the error that the study gave.

For `Cc1ccc(Sc2ccccc2N2CCNCC2)c(C)c1`, “participants with TEAE” read 0% (measured: eosinophil count increased; healthy adult men; oral, 5 mg daily, 12 days).
`CCc1cc(C(=O)NC)c2nccc(N3CCc4c(cc(Cn5ccnc5)cc4-c4cn(C)nc4C(F)(F)F)C3=O)c2c1` — result for “change in clinical chemistry or haematology parameter”: 4.4% (measured: TBIL; Sprague Dawley rat; oral, 100 mg/kg once daily, 7 days; relative to: vehicle).
For `C[C@@H](N)C1CCN(S(=O)(=O)c2cccc3cnccc23)CC1`, “participants with nausea” read 0% (healthy volunteers; 75 mg, fasted).
For `Cn1cc(Nc2nccc(-c3ccc4c(c3)CN(C3COC3)CC[C@H]4NC(=O)c3cn(C(C)(C)C)nn3)n2)cn1`, “plasmablast count change” read 4.61% (human, whole blood; 150 mg twice daily, day 7; relative to: pre-dose baseline).
`COc1cc2c(Nc3ccc(Cl)c(Cl)c3F)ncnc2cc1OC[C@@H]1C[C@@H]2CN(C)C[C@@H]2C1`: “total brain concentration” 2970 nM (FVB wild-type mice, brain; intraperitoneal infusion (osmotic pump), 10 µg/h, 48 h).
The viability of `O=C(CCCCCCC(=O)Nc1cccnc1)NO` is reported as 102% (HBL-1; 0.1 µM, 120 h).
`CNc1ccc(-c2nc3ccc(O)cc3s2)cc1` [carbon-11 labelled] has an SUV of 0.74 ± 0.228 (microPET/CT imaging; B6SJL mouse, normal, heart; intravenous, 20 min).
`CN1CCC[C@H](CN2c3ccccc3Sc3ccccc32)C1.Cl` gave a Cmax of 1010 ng/g (fasted female ICR mouse, skin; oral, 16 mg/kg).
For `CNC(=O)c1cc(Oc2ccc(NC(=O)Nc3cc(C(C)(C)C)nn3-c3ccc4ncccc4c3)c(F)c2)ccn1`, “patients with any AE of special interest” read 33% (measured: worst grade 1; human; oral, dose not given, cycles 1 and 2, Low AUC(0-4 h) subgroup).
The peak area of `OB1NN=Cc2ccccc21` is reported as 311000 a.u. and 304000 a.u. and 307000 a.u. (stability, UPLC-MS; diluted serum; 1 day, 37 °C; higher = more compound remaining).
The viability of `NC(=O)c1ccc(I)c([N+](=O)[O-])c1` is reported as 124% (HBL-1; 0.5 µM, 120 h).
The plasma concentration of `Cc1c(-c2ccc(N3CCc4cccc(C(=O)Nc5nc6ccccc6s5)c4C3)nc2C(=O)O)cnn1CC12CC3(C)CC(C)(C1)CC(OCCNCC[C@H](O)CO)(C3)C2` is reported as < 2 ng/mL (anaesthetized male beagle dog; iv infusion, 0.01 mg/kg/min, 30 min).
Under “AUC(0-last) geometric mean”, `CCOc1c([C@H](C)n2nc(C)c3c(N)ncnc32)cc(Cl)c(F)c1[C@@H]1CNC(=O)C1` is recorded as 11.1 µM·h (patients, monotherapy; oral, 20 mg once daily, cycle 1 day 15).
For `O=C(Nc1cnccc1Cl)N1CCN(Cc2ccc3c(c2)OC(F)(F)O3)CC1`, the renal clearance was 0.017 L/h (healthy young men, urine; oral, 25 mg once daily, day 10).
For `C[C@@H]1OC(=O)[C@H](Cc2ccccc2)[C@H]1O`, the DT50 was 0.35 days (aerobic dark soil incubation; clay soil; 20 °C, modelling endpoint).
For `CCN(CC)c1nc(N)c2c(N)nc3c(c2c1C#N)C(=O)CN3Cc1ccccc1`, the IC50 was 257 nM (Plasmodium yoelii; 17XL; 384-well).
`Cc1cccc(-c2ccc([C@@H]3[C@@H](CO)N4CCCCN(C(=O)c5ccc6c(c5)OCO6)C[C@@H]34)cc2)c1` gave an EC50 of > 100000 nM (IDE (Homo sapiens, UniProt P14735); enzyme activity, inhibitor, fluorogenic kinetic; added: Mca-RPPGFSAFK(Dnp)-OH substrate).
The AUClast of `C[C@H]1Oc2cc(cnc2N)-c2c(nn(C)c2C#N)CN(C)C(=O)c2ccc(F)cc21` is reported as 4870 ng·h/mL (human patients, plasma; oral, dose not given, cycle 2 day 1, geometric mean, added: avelumab).
For `CCCC(CCC)NC(=O)c1ccc2c(c1)OCO2`, the AUC(0-t) ratio was 0.92 (Sprague-Dawley rats, plasma; oral, 20 mg/kg; relative to: female over male).
With `CCc1nn(C)c2nc(-c3ccc(C(=O)O)cc3)nc(NCc3ccc(F)cc3)c12` the body weight was 23.6 g and 23.3 g and 21.8 g and 22.5 g (NSG mice; dose not given, day 15 of treatment).
Under “treatment-emergent adverse events”, `O=C(Nc1nc2cccc(-c3ccc(CN4CCS(=O)(=O)CC4)cc3)n2n1)C1CC1` is recorded as 0% (measured: blood amylase increased; rheumatoid arthritis patients; oral, 150 mg once daily, 4 weeks, any relatedness).
For `COc1ccc(C[C@@H](C)[C@@H](C)Cc2ccc(OC)c(OC)c2)cc1OC`, the AUC(0-t) was 15700 ± 4880 ng·h/mL (beagle dog female, plasma; oral, 1000 mg/kg/day, day 28).

A few entries again:
The viability of `O=C(CCCCCCC(=O)Nc1cccnc1)NO` is reported as 102% (HBL-1; 0.1 µM, 120 h).
`CNc1ccc(-c2nc3ccc(O)cc3s2)cc1` [carbon-11 labelled] has an SUV of 0.74 ± 0.228 (microPET/CT imaging; B6SJL mouse, normal, heart; intravenous, 20 min).
